Measurements gathered from unrelated publications.
Every numbered part comes from another study and shows a few of its results, in no order.

Sample 1
Target: human cyclin D1
Observed: peptide binding
Method: yeast competitive growth sequencing
Molecule type: peptide
Organism: Saccharomyces cerevisiae
Strain: cyclin D1-Cln2 fusion
Concentration: concentration not given
Notes: peptide tiling library
Relative to: Cln2 fusion control
Reading: direction not given
`RKLDLEGIGR`: “binding enrichment score” 0.618.
`IPDRSTKPVVFSPT` — result for “binding enrichment score”: 1.21.
Under “binding enrichment score”, `EPKTLFLGAGDFQF` is recorded as 1.59.
`VLLKRLQDVVSERANH` — result for “binding enrichment score”: 3.95.
Under “binding enrichment score”, `PHKTFRKLRLFDTPHT` is recorded as -0.928.
`LFVPQRKLEVSTEDVH` — result for “binding enrichment score”: -0.384.
`PKNAKRNLSSEFAN` — result for “binding enrichment score”: 0.586.
`PPKPLKKLRFDIEGSD` — result for “binding enrichment score”: -0.8.
For `ARKRLELGNLGNPQ`, “binding enrichment score” read -0.64.
`SDSTVTKLDFDLEP` — result for “binding enrichment score”: 0.591.
`ALLRRLQDVANDRGSH` — result for “binding enrichment score”: 4.21.
For `GPVKLEFDVSDGAT`, “binding enrichment score” read 0.136.
For `QDYERRLLRQIVIQNE`, “binding enrichment score” read -0.517.
`TSSAQRRLEIPSGGAD`: “binding enrichment score” -0.431.
For `KRCATPVIIDEILPSK`, “binding enrichment score” read 1.47.
For `NCKKRRALDFLSRLPL`, “binding enrichment score” read -0.29.

Sample 2
Target: POU domain, class 5, transcription factor 1, POU domain (Pou5f1, Mus musculus, UniProt P20263, residues 131-289)
UniProt P20263, sequence (131-289, looked up): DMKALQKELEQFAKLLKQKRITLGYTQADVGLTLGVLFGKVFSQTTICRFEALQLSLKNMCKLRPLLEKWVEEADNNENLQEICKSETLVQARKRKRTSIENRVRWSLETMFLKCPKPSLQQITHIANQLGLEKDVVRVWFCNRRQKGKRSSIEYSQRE
Method: Spec-seq
Molecule type: double-stranded DNA, one strand shown
Medium: in vitro
Concentration: not given
Notes: whole probe, mean of replicates
Relative to: not given
Reading: lower = stronger binding
All sequences stand within: GAGTCGTCTCGTCAGCAC … CCGTAGAGCACTCAGGTC
For `ATGCCAAG`, “relative binding energy” read 0.706 ln ratio.
`GCGTTAAT`: “relative binding energy” 0.591 ln ratio.
For `ATGCCAGC`, “relative binding energy” read 0.734 ln ratio.
Under “relative binding energy”, `ATGCCCCG` is recorded as 0.725 ln ratio.
For `ATTCCTAT`, “relative binding energy” read 0.275 ln ratio.
`TGCGTAAT` — result for “relative binding energy”: 0.492 ln ratio.
Under “relative binding energy”, `CAGATAAT` is recorded as 0.733 ln ratio.
For `ATGTCTAT`, “relative binding energy” read 0.641 ln ratio.
Under “relative binding energy”, `CCGGTAAT` is recorded as 0.693 ln ratio.
Under “relative binding energy”, `ATGAGCAT` is recorded as 0.33 ln ratio.
`ATTGAGAT` — result for “relative binding energy”: 0.141 ln ratio.
For `ATGCGCAC`, “relative binding energy” read 0.192 ln ratio.
For `ATGCCTAT`, “relative binding energy” read 0.472 ln ratio.
Under “relative binding energy”, `ATGCCGCT` is recorded as 0.786 ln ratio.
Under “relative binding energy”, `ATGTTCAT` is recorded as 0.507 ln ratio.
For `ACTTTAAT`, “relative binding energy” read 0.274 ln ratio.
`CCTTTAAT`: “relative binding energy” 0.756 ln ratio.
`ATGCTGGC`: “relative binding energy” 0.756 ln ratio.
`ATGATAAT` — result for “relative binding energy”: -0.701 ln ratio.
`ATGCCAAA`: “relative binding energy” 0.5 ln ratio.
`ATGCACTG` — result for “relative binding energy”: 0.431 ln ratio.
For `ATCCAGAT`, “relative binding energy” read 0.679 ln ratio.
`ATCGAGAT` — result for “relative binding energy”: 0.555 ln ratio.
For `CTTCTAAT`, “relative binding energy” read 0.84 ln ratio.
Under “relative binding energy”, `ATGCCGGA` is recorded as 0.718 ln ratio.

Sample 3
Target: Sal-like protein 4, full length isoform B (SALL4, Homo sapiens, UniProt Q9UJQ4-2, residues 1-616)
Method: universal PBM
Molecule type: double-stranded DNA, one strand shown
Medium: in vitro
Concentration: not given
Notes: 8-mer, flanks averaged, mean of replicates
Reading: higher = stronger binding
For `CATAGACA`, the E-score was 0.125.
`CATGTCCA` has an E-score of 0.0053.
With `AACTGAAT` the E-score was 0.0626.
`CGGAAAGC` gave an E-score of -0.175.
`CGCACACG` has an E-score of -0.201.
With `ACGTACAA` the E-score was 0.11.
The E-score of `TATGGAGA` is reported as 0.226.
`ATGATCGA` has an E-score of 0.146.
`AATTCGAT` gave an E-score of 0.181.
The E-score of `CCGCAGGA` is reported as -0.378.
`ACGATCGT` gave an E-score of -0.0208.
`GATCTGCA` has an E-score of -0.0909.
`ACACACAG` has an E-score of -0.0502.
The E-score of `CCTTACAA` is reported as 0.0978.
For `AAAAAAAT`, the E-score was 0.365.
`AACTCAGT` gave an E-score of -0.12.
`AAAACTCT` has an E-score of -0.0638.

Sample 4
Target: RNA binding protein fox-1 homolog 2, RRM domain, GST-SBP tag (RBFOX2, Homo sapiens, UniProt O43251-10, residues 100-194)
Method: RNA Bind-n-Seq
Molecule type: RNA
Medium: in vitro
Concentration: 365 nM
Notes: natural RNA segment, single round, ends assumed
Relative to: no-protein control
Reading: higher = stronger binding
All sequences stand within: GGGAGUUCUACAGUCCGACGAUC … UGGAAUUCUCGGGUGCCAA
Target sequence (chain): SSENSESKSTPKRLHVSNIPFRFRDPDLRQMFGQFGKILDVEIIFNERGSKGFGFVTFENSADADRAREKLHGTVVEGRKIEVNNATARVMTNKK
`CAAGGCCCUGUGGGAGGAGACUGGCCUGCAUCUCUCUAAGACUUAGUCUGACGCCACGCGCAUCUCUUGUUCUGUGUUCAAUCAGUAGUCCAGGGGAGAAGCUUCUGCUA` — result for “RBNS enrichment (R)”: 0.347.
`UUAAAACCUUGAACACUCCAGUUGACUGCAUCUGUGCUAGUGUGGUAUAUCAUACAUGAUCUUAAAGCCAAAGAUGCCAUGAAAAUACUGCAGUAUGGCUGUGAUUUCUG` — result for “RBNS enrichment (R)”: 0.421.
For `AAGAUUUAGGCACUCCAAGAGAGUAUGACUUCGUGUUUAAUUGGGGAGCUUGUUUUCAACAUUGCUUAUAUUUGAAUAGUAGAAAACCCGACAUUGAUGUUUCUUCCUGU`, “RBNS enrichment (R)” read 0.375.
For `AUUUGGAAAGUUGCAAAGAAGGUAGAUUUGGGGGCAGGAAAAACAACCCUUUUCACAGUGUACUGUGUUUGGUUGGUGUAAAACUGAUGCAGAUUUUUCUGAAAUGAGAU`, “RBNS enrichment (R)” read 0.678.
Under “RBNS enrichment (R)”, `AAUACUGCACACAUAAGAUACAUACUUGUGUGCAGAAAGUAUCUUCCUCCAGGCUUGUAAUACCCUUCACAUGGAAGAUUAAUGAGGGAAAUCUUUAUAUUCUGUAUAAA` is recorded as 0.477.
For `UAUAUCAUCCUUUAUCCCUGAGGUCACCUGGAAUCAGAUUAUUAAGGGAAUAAGCCAUGACGUCAAUAGCAGCCCAGGGCACUUCAGAGUAGAGGGCUUGGGAAGAUCUU`, “RBNS enrichment (R)” read 0.435.
`AAGUUUUUUAAUCACUUGAAUAAAUUGAUAUAAUAAAAGGAGCCACCAGGUGGUGUGUGGAUUCUGAUCAUGGACUUAGGUCACUGCUAGGGCUUAGCAGGUGUGGCUUA` — result for “RBNS enrichment (R)”: 0.42.
Under “RBNS enrichment (R)”, `GUAUCUGUAUCUCUCUCUCUUUUUGGAGGUGCUUAAGCAGAAGCAUUAACUUCUCUGGAAAGGGGGGAGCUGGGGAAACUCAAACUUUUCCCCUGUCCUGAUGGUCAGCU` is recorded as 0.202.

Single results of other studies
`PhoQ, residues 284 288 289 292 302 303 SACGEM` has a fold induction of 3.15 (PhoP, residues 12 14 15 18 19 LHHSG (Escherichia coli, UniProt P23836); Sort-seq, item: YFP reporter; E. coli; PhoQ-PhoP variant library, with: 10 µM Mg2+; relative to: high Mg2+ state, higher = stronger signaling).

A few entries again (sample 1):
Under “binding enrichment score”, `PHKTFRKLRLFDTPHT` is recorded as -0.928.
`SDSTVTKLDFDLEP` — result for “binding enrichment score”: 0.591.
For `NCKKRRALDFLSRLPL`, “binding enrichment score” read -0.29.
`PPKPLKKLRFDIEGSD` — result for “binding enrichment score”: -0.8.
`LFVPQRKLEVSTEDVH` — result for “binding enrichment score”: -0.384.
For `QDYERRLLRQIVIQNE`, “binding enrichment score” read -0.517.
`IPDRSTKPVVFSPT` — result for “binding enrichment score”: 1.21.
`ALLRRLQDVANDRGSH` — result for “binding enrichment score”: 4.21.
